Measured values from different studies.
Protocols differ between the studies behind these lines. Numbers after ± are the reported error.

SMILES | cell line | test | setting | how to read | measurement | value
Cc1ccc2cc(Cl)cc(O)c2n1 | RRCK low-efflux MDCK-II cells | – | 1.5 h, 37 °C, apical to basal | – | Papp | 1.41 ×10⁻⁶ cm/s
N=C(N)NCCC[C@@H]1NC(=O)[C@H](CCCNC(=N)N)NC(=O)[C@@H](C(c2ccccc2)c2ccccc2)NC(=O)[C@H](Cc2c[nH]c3ccccc23)NC(=O)[C@@H](C(c2ccccc2)c2ccccc2)NC(=O)[C@@H](CCCNC(=N)N)NC(=O)[C@@H](CCCNC(=N)N)NC1=O | human liver cells | MTS | 200 µg/mL, 24 h | – | viability | 80 to 82%
Cc1ccc2c(Cl)ccc(O)c2n1 | RRCK low-efflux MDCK-II cells | – | 1.5 h, 37 °C, apical to basal | – | Papp | 2.27 ×10⁻⁶ cm/s
CC(C)C[C@@H]1NC(=O)[C@@H](CC(C)C)NC(=O)[C@H](CCN)NC(=O)[C@@H](NC(=O)[C@H](CCN)NC(=O)[C@@H](N)[C@@H](C)O)CCNC(=O)[C@H]([C@@H](C)O)NC(=O)[C@H](CCN)NC(=O)[C@H](CCN)NC1=O | ciPTEC overexpressing OAT-1 | – | 24 h, 37 °C, serum-free medium | – | TC50 | > 1000 µM
O=C(OCc1cn(-c2cc3ccc(O)cc3oc2=O)nn1)c1ccccc1 | J774 | cell growth or viability, ATP luminescence | 72 h | – | CC50 | > 80 µM
Cc1ccc2cc([N+](=O)[O-])cc(O)c2n1 | RRCK low-efflux MDCK-II cells | – | 1.5 h, 37 °C, apical to basal | – | Papp | 1.73 ×10⁻⁶ cm/s
C[C@@H]1O[C@@H](O[C@@H]2[C@@H](O)[C@H](O)[C@@H](CO)O[C@H]2c2c(O)cc(O)c3c(=O)cc(-c4ccc(O)cc4)oc23)[C@H](O)[C@H](O)[C@H]1O | Caco-2 monolayer | transwell permeability | 100 µg/mL, apical to basolateral, HBSS, DMSO 1%, with: SDS 10 mg/mL | reference: SDS alone | Papp increase | 15.5%
CC1(F)CN(C(=O)Cn2c(=O)c(C(=O)NCc3ccc(Cl)cc3)cc3nc(N4CCN(CCN)C4=O)cnc32)C1 | Vero | cell viability, CCK-8 | 5 days | – | CC50 | > 40 µM
COc1cc(/C=C2\CNC/C(=C\c3cc(Cl)c(O)c(OC)c3)C2=O)cc(Cl)c1O | L02 | MTT | range over 3.75 to 60 µM, 24 and 48 h | – | cytotoxicity | not toxic
COC(=O)c1c2c(cc(O)c(=O)c1O)COC2=O | LX-2 | cell growth or viability, MTS | – | – | CC50 | 104 µM
O=C(Nc1cc(-c2ccnc3[nH]ccc23)c(Cl)cn1)[C@H]1CCC[C@@H](NC(=O)C(F)(F)F)C1 | MDCK-MDR1 cells | permeability | time not given, basolateral to apical | – | recovery | 105%
CC[C@H]1OC(=O)[C@H](C)[C@@H](O[C@H]2C[C@@](C)(OC)[C@@H](O)[C@H](C)O2)[C@H](C)[C@@H](O[C@@H]2O[C@H](C)C[C@H](N(C)C)[C@H]2O)[C@](C)(OC)C[C@@H](C)C(=O)[C@H](C)[C@@H](O)[C@]1(C)O | HEK293 | cell growth or viability | – | – | CC50 | > 32 µg/mL
N[C@@H](CNC(=O)N[C@@H](CS)C(=O)NCC(=O)O)C(=O)O | RPMI-2650 air–liquid interface | – | concentration not given | – | TEER after transport | 91.8 ± 8 Ω·cm²
Cc1ccc2cc(Br)cc(O)c2n1 | RRCK low-efflux MDCK-II cells | – | 1.5 h, 37 °C, apical to basal | – | Papp | 0.15 ×10⁻⁶ cm/s
CN1CCCNC(=O)c2cccc(c2)C(=O)NCCCN(C)CCCNc2cccc3c2C(=O)c2cccc(c2C3=O)NCCC1 | HEK293 | cell growth or viability, CCK-8 | 0.5 µM, 48 h | – | viability | 82%
Cc1cc(O)c(=O)c(O)cc1C(=O)c1ccccc1 | LX-2 | cell growth or viability, MTS | – | – | CC50 | 85 µM
Cc1ccc2ccc(F)c(O)c2n1 | RRCK low-efflux MDCK-II cells | – | 1.5 h, 37 °C, apical to basal | – | Papp | 2.57 ×10⁻⁶ cm/s

SMILES | cell line | test | setting | how to read | measurement | value
Cc1cc(=O)c2c(O)c3c(O[C@@H]4O[C@H](CO)[C@@H](O)[C@H](O)[C@H]4O)cc(O)cc3cc2o1 | HK-2 co-cultured with HepaRG | MTT | 16.67 µM, 24 h | reference: untreated control | cell viability | 98.3 ± 14.1%
Cc1cccnc1-c1csc(C(=O)Nc2cc(Cl)cc(NS(C)(=O)=O)c2)c1 | HUVEC | cell growth or viability, ATP luminescence | 10 days | – | CC50 | > 10 µM
Cc1ccc2cc(C#N)cc(O)c2n1 | RRCK low-efflux MDCK-II cells | – | 1.5 h, 37 °C, apical to basal | – | Papp | 1.2 ×10⁻⁶ cm/s
Cc1nc(=S)[nH]c(C)c1/N=N/c1nnc(S)[nH]1 | Vero | cell growth or viability, MTT | 72 h | – | CC50 | ≥ 10 µg/mL
O=CCNCCOn1c(=O)n(OCCNCCO)c(=O)n(OCCNCCOn2c(=O)n(OCCNCCO)c(=O)n(OCCNCCO)c2=O)c1=O | HUVEC | cell growth or viability, MTT | 12.5 µg/mL, 24 h | – | viability | 88.6%
O=C1/C(=C/c2cc(Cl)c(O)c(Cl)c2)CNC/C1=C\c1cc(Cl)c(O)c(Cl)c1 | L02 | MTT | range over 3.75 to 60 µM, 24 and 48 h | – | cytotoxicity | not toxic
NCCOCCOCCNC(=O)Cc1ccc(Nc2nc(NCc3ccc(F)cc3)nc(NCC3CCCCC3)n2)cc1 | HUVEC | cytotoxicity, CCK-8 | 48 h, 10% FBS | – | IC50 | 69.4 µM
N#Cc1cccc(/C=C/C(=O)c2ccc(O)cc2)c1 | U-118-MG | cell growth, MTT | 72 h | – | IC50 | 4.29 ± 1.42 µM
CC(C)C1=CC2=CCC3C(C)(C(=O)OCCC[N+](C)(C)C)CCCC3(C)C2CC1 (stereo not drawn) | NIH3T3 | cytotoxicity, LDH release | 5% FBS | – | IC50 | 133 µg/mL
Nc1ncnc2c1ncn2[C@@H]1O[C@H](CSCc2ccc3ccccc3c2Br)[C@@H](O)[C@H]1O | L2 rat cells | cytotoxicity, crystal violet | – | – | CC50 | > 200 µM
O=C1NC2(CC2)COc2ncc(F)cc2[C@H]2COCCN2c2ccn3ncc1c3n2 | CHL cells | chromosomal aberration test | 75 µg/mL, 4 h, without S9 mix | – | cells with chromosome gaps | 0.7%
O=C(/C=C/c1cccc(C(F)(F)F)c1)c1cccc(O)c1 | U-118-MG | cell growth, MTT | 72 h | – | IC50 | 10.1 ± 1.75 µM
CCOC(=O)c1cn(CC(c2c[nH]c3cc(Br)ccc23)c2c[nH]c3cc(Br)ccc23)c(C)c1C(=O)OC | human primary fibroblasts | viability, MTS | 24 h | – | CC50 | > 20 µM
COC(=O)c1ccc(/C=C/C(=O)c2ccc(O)c(OC)c2)cc1 | U-118-MG | cell growth, MTT | 72 h | – | IC50 | 17.7 ± 1.93 µM
Cc1ccc2ccc(Br)c(O)c2n1 | RRCK low-efflux MDCK-II cells | – | 1.5 h, 37 °C, apical to basal | – | Papp | 4.1 ×10⁻⁶ cm/s
CCC1(CC)CC(=O)N(C2CCOc3ccc(C(=O)NC4CC(C)(C)Oc5ccccc54)cc32)C(=N)N1 (stereo not drawn) | MDCK-II | – | – | – | Papp | 11.6 ± 0.6 ×10⁻⁶ cm/s

A few entries again:
SMILES | cell line | test | setting | how to read | measurement | value
Cc1cccnc1-c1csc(C(=O)Nc2cc(Cl)cc(NS(C)(=O)=O)c2)c1 | HUVEC | cell growth or viability, ATP luminescence | 10 days | – | CC50 | > 10 µM
Cc1ccc2cc(C#N)cc(O)c2n1 | RRCK low-efflux MDCK-II cells | – | 1.5 h, 37 °C, apical to basal | – | Papp | 1.2 ×10⁻⁶ cm/s
Cc1nc(=S)[nH]c(C)c1/N=N/c1nnc(S)[nH]1 | Vero | cell growth or viability, MTT | 72 h | – | CC50 | ≥ 10 µg/mL
O=CCNCCOn1c(=O)n(OCCNCCO)c(=O)n(OCCNCCOn2c(=O)n(OCCNCCO)c(=O)n(OCCNCCO)c2=O)c1=O | HUVEC | cell growth or viability, MTT | 12.5 µg/mL, 24 h | – | viability | 88.6%
